Published values from different studies.
Lines come from different studies, so protocols differ. ± gives the spread as reported.

Compound	assay	system	conditions	how to read	remaining compound
Cc1cc(C)nc(NC(=S)N2CCN(Cc3ccc(C(F)(F)F)cc3)CC2)c1	–	rat liver microsomes	15 min	–	105 ± 15%
COc1cc(-c2cncc(-c3ccc(N4CCN(C)CC4)cc3)c2C)cc(OC)c1OC	–	CD-1 mouse liver microsomes male	1 µM, 1 h, pH 7.4	–	2%
CCOC(=O)c1c(C(=O)OC)cn(CC(c2cn(C)c3ccccc23)c2cn(C)c3ccccc23)c1C	HPLC-ESI-MS	EMEM cell medium	72 h, 37 °C	–	95.6%
CC(C)(C)[C@H](NC(=O)c1ccc(Oc2ccc(C(=O)N[C@H]3CCCC[C@@H]3O)cc2)cc1)C(=O)NCCN1CCCC1	–	human liver microsomes	1 µM, 60 min, without cofactors	–	92%
Cc1nc2ccc(S(=O)(=O)n3nc(SCc4ccc(Cl)cc4)nc3N)cc2s1	–	mouse plasma	24 h	–	40%
O=C(NC1CCC(F)(F)CC1)C(c1cncnc1)N(C(=O)C(F)Cl)c1ccc(OC(F)(F)F)cc1 (stereo not shown)	–	human liver microsomes	concentration not given, 0.08333 h, pH 7.4	–	102%
O=Cc1cc(C(F)(F)F)ccc1B(O)O	–	HEPES buffer	20 h, pH 7.4	–	95%
CCCCN1C(=O)c2cccc3c(N4CC[N+](C)(C5OC(C(=O)O)C(O)C(O)C5O)CC4)ccc(c23)C1=O (stereo not shown)	–	human liver microsomes	3.19 nM, 24 h, 4 °C	–	95.6%
COC(=O)[C@H](Cn1cncn1)NC(=O)[C@H](Cn1nnnc1C)NC(=O)[C@H](Cn1nnc2ccccc21)NC(=O)C(F)(F)F	LC-MS	human plasma	0.71 mM, 2 h, 37 °C	–	11.9%
CS(=O)(=O)c1ccc(-c2cc(Cl)c(C(=O)N[C@@H](CNC(=O)CNC(=O)c3cccc(NC(=N)N)c3)C(=O)O)c(Cl)c2)cc1	–	mouse liver microsomes	45 min	–	121%
CC1(C)OB(c2cc(C(F)(F)F)ccc2C=O)OC1(C)C	HPLC-MS	HEPES buffer	1 h, pH 7.4	–	19%
[2H]C(Cc1c[nH]c2ccccc12)(Nc1ccccc1)C(=O)O (stereo not shown)	–	human liver microsomes	1.5 µM, 180 min, pH 7.4, mean of replicates	relative to: 0 min	75%
C[C@](C(=O)NC1CCC(F)(F)CC1)(c1cncnc1)N(C(=O)[C@H](F)Cl)c1ccc(OC(F)(F)F)cc1	–	human liver microsomes	concentration not given, 0.08333 h, pH 7.4	–	61.8%
C=CC(=O)Nc1ccc(-n2nc3c(=O)[nH]nc(N)c3c2-c2oc3ccc(C)cc3c2C)cc1	–	BALB/c nude mouse whole blood	1 µM, 1 h, 37 °C	–	69.3%
[2H]C1([2H])CC[C@@H](C[C@@H](C#N)NC(=O)[C@@H]2[C@@H]3[C@H](CN2C(=O)[C@@H](NC(=O)C(F)F)C(C)(C)C)C3(C)C)C(=O)N1	–	human liver microsomes	60 min, together with: NADPH	–	60.1%
COc1cc(-c2cncc(-c3ccc(N4CCNCC4)cc3)c2C)cc(OC)c1F	–	CD-1 mouse liver microsomes male	1 µM, 1 h, pH 7.4	–	66%
O=Cc1ccc2cccc(O)c2n1	HPLC-MS	HEPES buffer	1 h, pH 7.4	–	94%

Compound	assay	system	conditions	how to read	remaining compound
O=C(N1CCCCC1)C12CC(c3ccccc3)(C1)C2(Cl)Cl	–	pooled human liver microsomes	2 µM, 40 min, without NADPH	–	96%
Cc1ccc2oc(-c3c4c(N)n[nH]c(=O)c4nn3-c3ccc(NC(=O)/C=C/CN(C)C)cc3)c(C)c2c1	–	BALB/c nude mouse whole blood	1 µM, 0.5 h, 37 °C	–	92.5%
O=S(=O)(N[C@H]1CCO[C@@H](C2c3ccc(F)cc3CCc3cc(F)ccc32)C1)c1ccc(OC(F)(F)F)cc1	–	liver microsomes	10 µM, 30 min	–	69%
C=CC(=O)NCc1ccc(-n2nc3c(=O)[nH]nc(N)c3c2-c2oc3ccc(C)cc3c2C)cc1	–	BALB/c nude mouse whole blood	1 µM, 1 h, 37 °C	–	91.3%
O=Cn1nnc2ccccc21	HPLC-MS	HEPES buffer	1 h, pH 7.4	–	82%
C/C(=N\OCCN(C)Cc1ccccc1)c1ccc(C(F)(F)F)cc1	–	mouse liver microsomes	30 min, not detected	–	not detected
C=CC(=O)Nc1ccc(-n2nc3c(=O)[nH]nc(N)c3c2-c2oc3cc(F)ccc3c2C)cc1	–	BALB/c nude mouse whole blood	1 µM, 1 h, 37 °C	–	70.5%
[2H]C1([2H])CC[C@@H](C[C@@H](C#N)NC(=O)[C@@H]2[C@@H]3[C@H](CN2C(=O)[C@@H](NC(=O)C(F)(F)F)C(C)(C)C)C3(C)C)C(=O)N1	–	mouse liver microsomes	60 min	–	102%
C=CC(=O)Nc1cccc(Cn2ncc3cnc(Nc4cnn(CCOC)c4)nc32)c1	–	CD-1 mouse whole blood	5 µM, 0 min	–	100%
[2H]C1([2H])C[C@@H](C[C@@H](C#N)NC(=O)[C@@H]2[C@@H]3[C@H](CN2C(=O)[C@@H](NC(=O)C(F)(F)F)C(C)(C)C)C3(C)C)C(=O)N1	–	mouse liver microsomes	60 min, together with: NADPH	–	7.4%
Nc1nc(-c2ccccc2)nc2[nH]nc(Nc3ccc(Cl)cc3)c12	–	human liver microsomes	time not given, metabolic stability	–	32%
O=C(NC1CCC(F)(F)CC1)C(c1cncnc1)N(C(=O)C(F)Cl)c1ccc(-c2cncs2)cc1 (stereo not shown)	–	human liver microsomes	concentration not given, 0.3333 h, pH 7.4	–	58.4%
Cc1cnc(Nc2ccc(C3CCN(C)CC3)c(F)c2)nc1Nc1ccc(Cl)c(NS(=O)(=O)C(C)(C)C)c1	–	mouse liver microsomes	1 µM, 1 h	–	100%
CN(Cc1cc(C2CC2)on1)C(=O)c1cccc(-c2ccc(F)cc2)c1	–	human liver microsomes	2 µM, 5 min, pH 7.5, together with: 1-aminobenzotriazole	–	95.8%
O=C(C(=O)c1ccccc1)C(=O)c1ccccc1	HPLC-MS	HEPES buffer	1 h, pH 7.4	–	66%
Cl.NCc1ccc2c(c1)CN(C1CCC(=O)NC1=O)C2=O (stereo not shown)	–	male Göttingen minipig, whole blood	3 h	–	< 1%
CC[C@H](C)[C@H](NC(=O)[C@@H](NC(=O)[C@H](CCC(=O)O)NC(=O)[C@H](C)NC(=O)[C@H](C)NC(=O)[C@H](CCC(=O)O)NC(=O)[C@H](Cc1ccc2ccccc2c1)NC(=O)[C@H](Cc1ccc(OCc2ccccc2[N+](=O)[O-])cc1)NC(=O)[C@@H](NC(=O)[C@@H](NC(=O)[C@H](CCCNC(=N)N)NC(=O)[C@H](C)NC(=O)[C@H](CC(N)=O)NC(=O)[C@H](CCCCN)NC(=O)[C@H](CCCNC(=N)N)NC(=O)[C@H](CCCCN)NC(=O)[C@H](CCCNC(=N)N)NC(=O)[C@H](CCCCN)NC(=O)[C@@H]1CCCN1C(=O)[C@H](CCCNC(=N)N)NC(=O)[C@H](CCCCN)NC(=O)[C@H](CCCNC(=N)N)NC(=O)[C@H](CCCNC(=N)N)NC(C)=O)C(C)C)[C@@H](C)O)[C@@H](C)CC)C(N)=O	HPLC	dark	0 min	–	99%

Repeated from above:
Compound	assay	system	conditions	how to read	remaining compound
O=Cn1nnc2ccccc21	HPLC-MS	HEPES buffer	1 h, pH 7.4	–	82%
O=Cc1cc(C(F)(F)F)ccc1B(O)O	–	HEPES buffer	20 h, pH 7.4	–	95%
[2H]C1([2H])CC[C@@H](C[C@@H](C#N)NC(=O)[C@@H]2[C@@H]3[C@H](CN2C(=O)[C@@H](NC(=O)C(F)F)C(C)(C)C)C3(C)C)C(=O)N1	–	human liver microsomes	60 min, together with: NADPH	–	60.1%
